Measured values of several laboratories.
Each line is one published result; not all experiments were run side by side. “And” joins repeats or separate records; there may be more than shown. ± marks the error that the study gave.

CC(C)(c1ccccc1)c1cc(-n2nc3ccccc3n2)c(O)c(C(C)(C)c2ccccc2)c1
daily dermal exposure dose (human aged 6-11 years; concentration not given, spray sunscreen, 95th percentile): 68 ng/kg/day

CC(C)C(=O)OC[C@H]1O[C@@H](n2ccc(NO)nc2=O)[C@H](O)[C@@H]1O
bench-top stability (rat amniotic fluid dialysate; 5 ng/mL, 6 h, room temperature, low concentration, together with: NHC 25 ng/mL): 102 ± 1.9%

CN1CC[C@@H](c2c(O)cc(O)c3c(=O)cc(-c4ccc(C(F)(F)F)cc4Cl)oc23)[C@@H]1CO
patients with adverse event (refers to: Anorexia; AML; oral, 100 mg, intermittent dosing): 0%

O=C1Nc2cc3[nH]nc(-c4ccncc4)c3cc2CN1Cc1ccccc1
patients with diarrhoea (CTCAE v4.03; advanced solid tumour patients; intravenous, 1.8 mg/kg, schedules 1/2): 0%

COc1cc2c(Oc3ccc4[nH]c(C)cc4c3F)ccnc2cc1OCC1(N)CC1
grade 1 or 2 Neutropenia (paediatric recurrent refractory sarcoma; 8 mg): 0%

C[C@@H](NC(=O)N1C(=O)[C@H](Cc2ccnc(N)c2)[C@H]1C(=O)O)C1CCCCC1
elevated neutrophil (healthy Chinese adult volunteers; continuous intravenous infusion, dose not given, 5.0 days, CTCAE 5.0, all doses): 2.5%

Clc1cc2c(cc1Cl)Oc1cc(Cl)c(Cl)cc1O2
terminal body weight decrease (female Sprague-Dawley rat; oral gavage, 10 µg/kg, day 28, every 28 d for 4 d; relative to: vehicle): 12.9%

C[C@]1(CO)Cc2ncn(-c3ccc(C#N)c(Cl)c3)c2C(=O)O1
subjects with drug-related orthostatic hypotension (human; 80 mg single dose): 0%

CC1CCCCN1CCCNC(=O)c1cc(Sc2ccc(Cl)cc2)nc2ccccc12 (stereo not drawn)
cytotoxicity efficacy (Vero-E6; CellTiter-Glo ATP; concentration not given, 72 h, first round 5-point; relative to: DMSO 0%, hyamine -100%, more negative, more toxic): 0%

CO[C@H]1C[C@@H]2CC[C@@H](C)[C@@](O)(O2)C(=O)C(=O)N2CCCC[C@H]2C(=O)O[C@H]([C@H](C)C[C@@H]2CC[C@@H](OC(=O)NCCOCCOCCOCCOCCOCCOCCOCCOCCC(=O)N3CCc4cc(Cn5nc(-c6ccc7oc(N)nc7c6)c6c(N)ncnc65)ccc4C3)[C@H](OC)C2)C[C@@H](O)[C@H](C)/C=C(\C)[C@@H](O)[C@@H](OC)C(=O)[C@H](C)C[C@H](C)/C=C/C=C/C=C/1C
maculopapular rash incidence (patients with advanced solid tumours; intravenous, 6 mg weekly, grade 3 or higher): 8.3%

CCC[C@@](N)(CO)CCc1ccc(OCCCCCC(C)C)cc1
half-life (dog; oral, 15 mg/kg): 16.9 h

COc1ccc(-c2c(-c3ccc(C#N)c(F)c3)nc(N3CCC(N)CC3)n(C)c2=O)cc1F
treatment-related adverse event incidence (refers to: Vomiting; neuroendocrine neoplasm patients; oral, 60 mg, any grade, dose expansion): 6%

CC[C@H](C)[C@H](NC(=O)[C@H](Cc1ccccc1)NC(=O)[C@H](CCC(=O)O)NC(=O)[C@H](CCCNC(=N)N)NC(=O)[C@H](C)NC(=O)[C@H](C)NC(=O)[C@H](CCC(N)=O)NC(=O)[C@H](CCC(=O)O)NC(=O)[C@H](CCC(=O)O)NC(=O)[C@H](CC(C)C)NC(=O)[C@H](Cc1ccc(O)cc1)NC(=O)[C@H](CO)NC(=O)[C@H](CO)NC(=O)[C@@H](NC(=O)[C@H](CC(=O)O)NC(=O)[C@H](CO)NC(=O)[C@@H](NC(=O)[C@H](Cc1ccccc1)NC(=O)[C@@H](NC(=O)CNC(=O)[C@H](CCC(=O)O)NC(=O)[C@H](C)NC(=O)CCc1cnc[nH]1)[C@@H](C)O)[C@@H](C)O)C(C)C)C(=O)N[C@@H](C)C(=O)N[C@@H](Cc1c[nH]c2ccccc12)C(=O)N[C@@H](CC(C)C)C(=O)N[C@H](C(=O)N[C@@H](CCCNC(=N)N)C(=O)NCC(=O)N[C@@H](CCCNC(=N)N)C(=O)N[C@@H](CCCCNC(=O)COCCOCCNC(=O)COCCOCCNC(=O)CC[C@H](NC(=O)CCCCCCCCCCCCCCCCC(=O)O)C(=O)O)C(=O)NCC(=O)NCC(=O)N[C@@H](CO)C(=O)N[C@@H](CCCCNC(=O)[C@H](CCCCNc1c(NCCCCCN(O)C(=O)CCC(=O)NCCCCCN(O)C(=O)CCC(=O)NCCCCCN(O)C(C)=O)c(=O)c1=O)Nc1c(NCCCCCN(O)C(=O)CCC(=O)NCCCCCN(O)C(=O)CCC(=O)NCCCCCN(O)C(C)=O)c(=O)c1=O)C(=O)O)C(C)C [zirconium-89 labelled]
tissue uptake (ex vivo gamma counting; Sprague-Dawley rat, male, blood; intravenous, 1 nmol, 24 h): 0.343 %ID/g and 0.325 %ID/g

C=CC(=O)N1CC[C@H](n2nc(C#Cc3cc(OC)cc(OC)c3)c3c(N)ncnc32)C1
ALT increased, any grade (human patients; oral, dose not given, QD regimen, adverse drug reaction, together with: lanthanum carbonate hydrate): 20.8%

CC(=O)c1c(C)c2cnc(Nc3ccc(C4CCN(CCS(C)(=O)=O)CC4)cn3)nc2n(C2CCCC2)c1=O
clearance (human patients, plasma; oral, 100 mg twice daily, day 1 single dose, together with: fulvestrant): 1900 mL/min

O=C(Nc1ccccc1)C1CCN(C(=O)Oc2cccnc2)CC1
subjects with cardiac disorders (adverse event reporting; healthy women; oral, 20 mg, 7 days): 14.3%

NC(=O)[C@H]1CCN(c2ncnc(N)c2F)C[C@@H]1N1CCC[C@@H](Nc2cc(Cl)cc(C(F)(F)F)c2)C1=O
grade ≥3 lymphopenia (B-cell malignancy patients; oral, 82 mg twice daily, dose): 0%

Cn1cncc1-c1c(F)cncc1NC(=O)c1c(N)nn2cc(F)cnc12
patients grade ≥3 Neutrophil count decrease (human patients; oral, 180 mg once daily, 2 weeks on 1 week off): 0%

N=c1c2c(-c3ccccc3)c(-c3ccccc3)n(Cc3ccccc3)c2ncn1[C@H]1CC[C@H](O)CC1
AUC(0-t)/AUC(0-inf) ratio (Sprague-Dawley rat, male, plasma; 2 mg/kg): > 95%

CC(C)[C@@H]1NC(=O)CNC(=O)[C@H](CC(N)=O)NC(=O)[C@H](CCCNC(=N)N)NC(=O)[C@H](Cc2ccc(O)cc2)NC(=O)[C@H](C(C)C)NC(=O)[C@@H](NC(=O)[C@@H](NC(=O)[C@H](CC(N)=O)NC(=O)[C@H](Cc2c[nH]c3ccccc23)NC(=O)[C@H](C)NC(=O)[C@H](Cc2ccccc2)NC(=O)CN)C(C)C)CSSC[C@@H](C(=O)N[C@@H](Cc2cnc[nH]2)C(=O)N[C@@H](CCCNC(=N)N)C(=O)N[C@@H](CCCNC(=N)N)C(=O)N[C@@H](C)C(=O)N[C@@H](CC(N)=O)C(N)=O)NC(=O)[C@H](C(C)C)NC(=O)[C@H](CCCNC(=N)N)NC1=O
haemoglobin (ICR mouse, blood; intramammary, 10 mg/kg, day 5, 3 d dosing): 120 ± 1.88 g/L

Cn1c(-c2ccc(C(N)=O)cc2F)nnc1C(C)(C)Oc1c(F)cc(Cl)cc1F
subjects with drug-related TEAE (human; oral, 1 mg, single ascending dose): 16.7%

CC(C)n1c(C2CCNCC2)nc2c([N+](=O)[O-])c(Br)c(Br)cc21
AE leading to interruption (patients with AML; 125 mg, accidental overdose): 2%

CCCCN(C)CCNC(=O)c1cc(-c2ccc(Cl)s2)nc2ccccc12
cytotoxicity efficacy (Vero-E6; CellTiter-Glo ATP; concentration not given, 72 h, first round 5-point; relative to: DMSO 0%, hyamine -100%, more negative, more toxic): -15.1%

CCCCCCCCCCCCCCCC(=O)N[C@@H](CCC(=O)NCCCC[C@H](NC(=O)[C@H](CC(=O)O)NC(=O)[C@H](CO)NC(=O)[C@@H](NC(=O)[C@H](Cc1ccccc1)NC(=O)[C@@H](NC(=O)CNC(=O)[C@H](CCC(N)=O)NC(=O)[C@H](CO)NC(=O)[C@@H](N)Cc1c[nH]cn1)[C@@H](C)O)[C@@H](C)O)C(=O)N[C@@H](CO)C(=O)N[C@@H](CCC(=O)O)C(=O)N[C@@H](Cc1ccc(O)cc1)C(=O)N[C@@H](CC(C)C)C(=O)N[C@@H](CC(=O)O)C(=O)N[C@@H](CO)C(=O)N[C@@H](CCC(=O)O)C(=O)N[C@@H](CCCNC(=N)N)C(=O)N[C@@H](C)C(=O)N[C@@H](CCCNC(=N)N)C(=O)N[C@@H](CC(=O)O)C(=O)N[C@@H](Cc1ccccc1)C(=O)N[C@H](C(=O)N[C@@H](C)C(=O)N[C@@H](Cc1c[nH]c2ccccc12)C(=O)N[C@@H](CC(C)C)C(=O)N[C@@H](CCC(=O)O)C(=O)N[C@@H](C)C(=O)NCC(=O)NCC(=O)O)C(C)C)C(=O)O
injection site bruising (human, CrCl ≥45 to <60 mL/min; sc, 100 µg single dose): 14.3%

A few entries again:
CC(C)C(=O)OC[C@H]1O[C@@H](n2ccc(NO)nc2=O)[C@H](O)[C@@H]1O
bench-top stability (rat amniotic fluid dialysate; 5 ng/mL, 6 h, room temperature, low concentration, together with: NHC 25 ng/mL): 102 ± 1.9%

CN1CC[C@@H](c2c(O)cc(O)c3c(=O)cc(-c4ccc(C(F)(F)F)cc4Cl)oc23)[C@@H]1CO
patients with adverse event (refers to: Anorexia; AML; oral, 100 mg, intermittent dosing): 0%

O=C1Nc2cc3[nH]nc(-c4ccncc4)c3cc2CN1Cc1ccccc1
patients with diarrhoea (CTCAE v4.03; advanced solid tumour patients; intravenous, 1.8 mg/kg, schedules 1/2): 0%

COc1cc2c(Oc3ccc4[nH]c(C)cc4c3F)ccnc2cc1OCC1(N)CC1
grade 1 or 2 Neutropenia (paediatric recurrent refractory sarcoma; 8 mg): 0%
